Measurements collected from several papers.
Every numbered part comes from another study and shows a few of its results, in no order.

Series 1 — method: protein-binding microarray; molecule type: double-stranded DNA, one strand shown; sample: in vitro; tested at: 250 nM; notes: 60-bp whole probe; with: salmon DNA 0.4 mg/ml; reference: random background probes; reading: higher = stronger binding
Target: Interferon regulatory factor 5, full length, phosphomimetic (IRF5, Homo sapiens, UniProt Q13568-2, residues 1-514, K96S/S451D/S453D/S456D/S462D)
| Oligonucleotide | log fluorescence [z-score] |
| --- | --- |
| GCCTAGCACATAGGTCTCCTTATCCTTTAGTGCTAGGTCTTGATTCGCTTGACGCTGCTG | 0.0965 |
| GCCTAGCACTCATTTCTGAATGTCCTACTGTGCTAGGTCTTGATTCGCTTGACGCTGCTG | 1.15 |
| GCCTAGCACGACGGTCTCCGTATCCTGACGTGCTAGGTCTTGATTCGCTTGACGCTGCTG | -0.153 |
| GCCTAGCACCTGGGCAGGATGAGTTCCAGGTGCTAGGTCTTGATTCGCTTGACGCTGCTG | -0.446 |

Series 2 — method: protein binding microarray; molecule type: double-stranded DNA, one strand shown; sample: in vitro; tested at: not given; reference: not given; reading: higher = stronger binding
Target: Histone acetyltransferase KAT6A, both winged helices, GST fusion (KAT6A, Homo sapiens, UniProt Q92794, residues 1-181)
Notes: 8-mer, flanks averaged, mean of 2 arrays, mostly near background
Construct (chain): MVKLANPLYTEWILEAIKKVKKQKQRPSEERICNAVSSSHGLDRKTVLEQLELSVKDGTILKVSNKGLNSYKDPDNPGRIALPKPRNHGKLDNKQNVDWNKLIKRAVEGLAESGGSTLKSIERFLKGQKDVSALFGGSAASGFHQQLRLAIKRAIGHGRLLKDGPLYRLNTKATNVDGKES
| Oligonucleotide | E-score |
| --- | --- |
| TCGAGCCA | 0.044 |
| ACTTCCCC | -0.171 |
| GCACTTTA | -0.0314 |
| GCTGATCC | -0.00354 |

Series 3 — method: aptamer microarray, sandwich; molecule type: DNA with 2'F-ANA; sample: in vitro; tested at: 200 nM; with: Cy3 exosite-II aptamer, 400 nM; reading: higher = stronger binding; oligonucleotide: GGTTGGTGTGGTTGG
Target: Prothrombin, mature alpha-thrombin (F2, Homo sapiens, UniProt P00734)
Notes: whole 15-mer aptamer, many near background
| Modification | mean fluorescence intensity |
| --- | --- |
| 2'F-ANA at 2 3 11 15 | 699 a.u. |
| 2'F-ANA at 1 2 3 5 6 7 8 9 11 13 14 | 46.4 a.u. |
| 2'F-ANA at 1 2 6 7 9 11 12 13 | 155 a.u. |
| 2'F-ANA at 1 2 3 5 7 8 13 14 15 | 48.5 a.u. |
| 2'F-ANA at 1 3 6 7 8 10 11 13 15 | 72.5 a.u. |
| 2'F-ANA at 4 6 8 11 12 13 14 | 97.6 a.u. |

Other studies, line by line
| Molecule | target | test | system | conditions | how to read | quantity | result |
| --- | --- | --- | --- | --- | --- | --- | --- |
| PhoQ, residues 284 288 289 292 302 303 SLSLLA | PhoP, residues 12 14 15 18 19 NFCKL (Escherichia coli, UniProt P23836) | Sort-seq, measured: YFP reporter | E. coli | PhoQ-PhoP variant library, with: 10 µM Mg2+ | reference: high Mg2+ state, higher = stronger signaling | fold induction | 24.3 |

A few entries again (series 2):
| Oligonucleotide | E-score |
| --- | --- |
| TCGAGCCA | 0.044 |
